Assay results collected from several papers.
Protocols differ between the studies behind these lines. ± gives the spread as reported.
Sequence of UniProt P18031 (whole entry, looked up): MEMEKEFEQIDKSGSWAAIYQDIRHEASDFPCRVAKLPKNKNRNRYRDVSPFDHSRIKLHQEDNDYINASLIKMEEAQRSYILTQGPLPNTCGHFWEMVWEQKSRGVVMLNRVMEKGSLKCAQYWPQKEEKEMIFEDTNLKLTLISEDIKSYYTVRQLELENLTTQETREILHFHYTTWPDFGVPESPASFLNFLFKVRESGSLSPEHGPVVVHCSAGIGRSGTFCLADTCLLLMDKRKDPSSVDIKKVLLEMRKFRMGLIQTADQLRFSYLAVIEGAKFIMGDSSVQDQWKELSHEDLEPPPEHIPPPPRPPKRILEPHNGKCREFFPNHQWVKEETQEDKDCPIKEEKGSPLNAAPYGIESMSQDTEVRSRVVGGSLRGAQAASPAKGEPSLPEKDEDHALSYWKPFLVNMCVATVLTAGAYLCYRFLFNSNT
Sequence of UniProt P97612 (whole entry, looked up): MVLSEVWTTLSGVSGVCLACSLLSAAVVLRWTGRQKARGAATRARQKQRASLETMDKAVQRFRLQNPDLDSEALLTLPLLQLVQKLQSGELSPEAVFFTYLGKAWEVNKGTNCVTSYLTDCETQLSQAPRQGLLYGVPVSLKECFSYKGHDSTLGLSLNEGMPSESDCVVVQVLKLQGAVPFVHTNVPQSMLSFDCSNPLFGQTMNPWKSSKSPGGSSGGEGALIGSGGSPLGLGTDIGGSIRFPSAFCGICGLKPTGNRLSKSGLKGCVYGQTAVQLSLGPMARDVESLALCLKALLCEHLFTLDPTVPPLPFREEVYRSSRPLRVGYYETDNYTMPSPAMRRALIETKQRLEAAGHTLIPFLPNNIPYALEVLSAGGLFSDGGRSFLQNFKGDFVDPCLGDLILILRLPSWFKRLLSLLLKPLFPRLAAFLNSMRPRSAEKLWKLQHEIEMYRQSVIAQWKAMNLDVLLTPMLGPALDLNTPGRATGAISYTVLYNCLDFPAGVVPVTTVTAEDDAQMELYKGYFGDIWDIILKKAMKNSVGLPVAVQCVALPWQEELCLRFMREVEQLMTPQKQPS
Sequence of UniProt P14780 (whole entry, looked up): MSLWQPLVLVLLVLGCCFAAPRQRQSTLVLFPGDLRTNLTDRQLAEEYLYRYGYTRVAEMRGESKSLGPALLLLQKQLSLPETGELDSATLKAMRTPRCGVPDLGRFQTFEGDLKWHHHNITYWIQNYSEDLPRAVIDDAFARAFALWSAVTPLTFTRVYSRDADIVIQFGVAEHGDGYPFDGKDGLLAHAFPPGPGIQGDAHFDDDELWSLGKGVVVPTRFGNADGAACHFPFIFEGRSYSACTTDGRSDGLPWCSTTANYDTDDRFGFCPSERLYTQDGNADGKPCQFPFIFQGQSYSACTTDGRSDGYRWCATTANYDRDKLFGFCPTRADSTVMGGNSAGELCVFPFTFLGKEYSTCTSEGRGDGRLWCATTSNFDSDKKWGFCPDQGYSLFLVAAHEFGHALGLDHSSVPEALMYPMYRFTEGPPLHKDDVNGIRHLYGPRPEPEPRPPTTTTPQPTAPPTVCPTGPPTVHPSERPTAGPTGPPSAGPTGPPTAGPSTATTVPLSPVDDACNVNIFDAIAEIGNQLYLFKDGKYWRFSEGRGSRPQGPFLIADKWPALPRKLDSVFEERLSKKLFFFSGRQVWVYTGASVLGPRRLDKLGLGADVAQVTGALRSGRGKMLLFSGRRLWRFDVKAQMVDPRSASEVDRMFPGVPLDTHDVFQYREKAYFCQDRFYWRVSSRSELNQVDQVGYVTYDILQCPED
Sequence of UniProt O08619 (whole entry, looked up): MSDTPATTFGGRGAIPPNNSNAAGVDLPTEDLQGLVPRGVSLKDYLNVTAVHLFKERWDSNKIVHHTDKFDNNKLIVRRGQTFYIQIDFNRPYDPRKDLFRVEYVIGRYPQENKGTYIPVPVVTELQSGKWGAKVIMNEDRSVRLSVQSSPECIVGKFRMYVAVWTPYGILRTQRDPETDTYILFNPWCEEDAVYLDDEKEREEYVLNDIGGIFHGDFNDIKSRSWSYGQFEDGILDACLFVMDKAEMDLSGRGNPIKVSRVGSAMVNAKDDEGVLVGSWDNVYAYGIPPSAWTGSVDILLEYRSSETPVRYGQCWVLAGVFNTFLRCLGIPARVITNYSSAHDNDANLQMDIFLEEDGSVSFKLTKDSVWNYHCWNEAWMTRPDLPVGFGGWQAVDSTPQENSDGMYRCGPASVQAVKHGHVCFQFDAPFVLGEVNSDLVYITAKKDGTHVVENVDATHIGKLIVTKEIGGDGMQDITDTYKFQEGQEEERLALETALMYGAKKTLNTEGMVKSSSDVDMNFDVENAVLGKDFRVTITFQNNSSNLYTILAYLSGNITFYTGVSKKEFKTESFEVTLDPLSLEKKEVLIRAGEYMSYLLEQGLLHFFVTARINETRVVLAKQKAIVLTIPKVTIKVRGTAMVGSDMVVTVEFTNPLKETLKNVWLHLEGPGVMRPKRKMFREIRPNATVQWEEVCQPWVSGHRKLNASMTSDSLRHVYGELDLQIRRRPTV
Sequence of UniProt P03303 (whole entry, looked up): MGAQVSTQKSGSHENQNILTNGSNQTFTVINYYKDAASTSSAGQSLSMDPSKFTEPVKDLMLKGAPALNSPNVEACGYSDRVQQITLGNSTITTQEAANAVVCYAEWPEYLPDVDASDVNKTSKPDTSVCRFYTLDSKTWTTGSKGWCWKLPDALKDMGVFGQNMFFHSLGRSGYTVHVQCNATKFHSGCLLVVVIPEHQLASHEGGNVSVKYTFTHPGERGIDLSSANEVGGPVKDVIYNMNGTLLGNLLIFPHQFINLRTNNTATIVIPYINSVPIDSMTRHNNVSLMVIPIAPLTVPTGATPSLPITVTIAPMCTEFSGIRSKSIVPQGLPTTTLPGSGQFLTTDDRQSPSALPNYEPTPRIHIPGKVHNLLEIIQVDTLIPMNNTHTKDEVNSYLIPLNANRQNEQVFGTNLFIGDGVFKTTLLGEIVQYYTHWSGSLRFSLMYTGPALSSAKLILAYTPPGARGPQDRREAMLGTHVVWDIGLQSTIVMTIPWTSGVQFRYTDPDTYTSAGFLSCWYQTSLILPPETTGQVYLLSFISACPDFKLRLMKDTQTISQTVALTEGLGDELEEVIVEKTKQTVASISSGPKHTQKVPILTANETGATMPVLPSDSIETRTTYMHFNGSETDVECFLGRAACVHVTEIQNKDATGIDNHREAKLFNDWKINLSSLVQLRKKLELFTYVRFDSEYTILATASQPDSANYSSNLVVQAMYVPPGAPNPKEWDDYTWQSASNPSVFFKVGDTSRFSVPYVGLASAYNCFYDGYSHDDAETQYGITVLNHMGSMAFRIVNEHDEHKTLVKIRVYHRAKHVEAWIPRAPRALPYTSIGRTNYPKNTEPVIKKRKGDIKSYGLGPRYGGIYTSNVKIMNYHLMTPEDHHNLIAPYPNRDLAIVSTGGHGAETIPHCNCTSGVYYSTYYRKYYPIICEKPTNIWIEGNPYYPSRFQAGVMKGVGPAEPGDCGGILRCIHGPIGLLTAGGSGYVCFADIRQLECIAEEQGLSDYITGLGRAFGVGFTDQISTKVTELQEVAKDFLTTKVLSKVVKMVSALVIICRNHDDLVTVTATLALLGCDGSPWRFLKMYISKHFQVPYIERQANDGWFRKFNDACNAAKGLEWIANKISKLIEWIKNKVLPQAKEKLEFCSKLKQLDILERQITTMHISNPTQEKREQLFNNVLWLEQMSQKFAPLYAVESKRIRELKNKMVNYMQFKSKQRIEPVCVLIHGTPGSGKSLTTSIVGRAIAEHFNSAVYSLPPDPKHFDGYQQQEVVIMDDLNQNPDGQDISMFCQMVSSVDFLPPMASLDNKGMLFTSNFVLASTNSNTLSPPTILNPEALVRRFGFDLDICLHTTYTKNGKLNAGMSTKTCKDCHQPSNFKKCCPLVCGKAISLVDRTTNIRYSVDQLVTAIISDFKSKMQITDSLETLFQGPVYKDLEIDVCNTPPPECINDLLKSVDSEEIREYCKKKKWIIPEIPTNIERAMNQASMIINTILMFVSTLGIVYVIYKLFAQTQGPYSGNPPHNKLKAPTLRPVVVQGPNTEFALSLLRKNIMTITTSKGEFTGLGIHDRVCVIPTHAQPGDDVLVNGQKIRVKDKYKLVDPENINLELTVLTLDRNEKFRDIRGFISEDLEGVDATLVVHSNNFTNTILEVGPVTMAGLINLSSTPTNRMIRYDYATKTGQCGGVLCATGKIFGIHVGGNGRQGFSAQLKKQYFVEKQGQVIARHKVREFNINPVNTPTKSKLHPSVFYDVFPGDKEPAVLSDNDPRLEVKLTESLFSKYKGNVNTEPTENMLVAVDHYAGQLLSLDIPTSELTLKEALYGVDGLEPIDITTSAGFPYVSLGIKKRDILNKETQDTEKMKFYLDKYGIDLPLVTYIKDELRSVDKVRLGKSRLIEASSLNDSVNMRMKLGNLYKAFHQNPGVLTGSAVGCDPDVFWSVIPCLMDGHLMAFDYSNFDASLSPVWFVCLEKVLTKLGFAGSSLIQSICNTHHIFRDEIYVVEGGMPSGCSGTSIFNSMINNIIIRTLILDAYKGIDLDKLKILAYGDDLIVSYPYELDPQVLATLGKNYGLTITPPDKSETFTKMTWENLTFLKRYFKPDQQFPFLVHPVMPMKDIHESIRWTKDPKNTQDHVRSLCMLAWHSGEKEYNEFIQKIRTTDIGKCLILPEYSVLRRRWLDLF
Sequence of UniProt P13346 (whole entry, unmodified, looked up): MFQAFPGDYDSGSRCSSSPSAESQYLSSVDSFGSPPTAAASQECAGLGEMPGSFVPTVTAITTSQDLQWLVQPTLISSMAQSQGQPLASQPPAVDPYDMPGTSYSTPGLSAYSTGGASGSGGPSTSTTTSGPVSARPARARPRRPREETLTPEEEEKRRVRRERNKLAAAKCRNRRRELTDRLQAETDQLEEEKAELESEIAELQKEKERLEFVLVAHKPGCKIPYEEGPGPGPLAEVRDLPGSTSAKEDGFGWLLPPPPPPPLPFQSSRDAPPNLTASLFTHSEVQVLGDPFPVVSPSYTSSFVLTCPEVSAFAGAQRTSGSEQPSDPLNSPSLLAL

With `CC[C@H](C)[C@H](NC(=O)[C@@H](N)CC(=O)O)C(=O)N[C@H]1CSC(=O)[C@H](Cc2ccccc2)NC(=O)[C@H](Cc2ccc(O)cc2)NC(=O)[C@H](C)NC(=O)[C@H](CC(N)=O)NC1=O` the IC50 was 0.419 µM (accessory gene regulator protein C (Staphylococcus aureus, UniProt O33587)).
`O=C(CCl)c1ccc(F)cc1` has an IC50 of greater than 200 µM (Fosb/Jund, ΔFosB isoform (Mus musculus, UniProt P13346+P15066); ΔFOSB/JUND DNA binding, fluorescence polarization; 15 min, added: TMR-cdk5 oligonucleotide).
The IC50 of `CCC1c2ccsc2CCN1C(=O)Cn1nnc2ccccc21` (stereo not shown) is reported as greater than 100 µM (Genome polyprotein, 3C protease (rhinovirus B14, UniProt P03303); 3C protease activity, SAMDI-MS; human rhinovirus).
The IC50 of `O=C(NCCCCn1ccc2ccccc21)Oc1ccccc1` is reported as 0.53 µM (Faah (Rattus norvegicus, UniProt P97612); rat brain homogenate; 60 min, 37 °C).
`CC(C)C[C@H](NC(=O)[C@H](CCC(=O)O)NC(=O)[C@@H](N)CS)C(=O)N[C@@H](CC(N)=O)C(=O)O` gave an IC50 of 233 µM (PPO3 (Agaricus bisporus, UniProt C7FF04); enzyme activity, inhibitor).
The IC50 of `CC(C)[C@H](NC(=O)c1ccc(CCc2nc3c(c(=O)[nH]2)CCC3)cc1)C(=O)NC1COC1` is reported as greater than 5 µM (MMP9 (Homo sapiens, UniProt P14780); enzyme activity, inhibitor).
The IC50 of `CCCC[C@H]1C(=O)N(C)[C@@H](CCCC)C(=O)N[C@@H](CC(C)C)C(=O)N[C@H](C(=O)NCC(N)=O)CSCC(=O)N[C@@H](Cc2ccc(O)cc2)C(=O)N2CCCC[C@H]2C(=O)N[C@@H](CC(N)=O)C(=O)N2C[C@H](O)C[C@H]2C(=O)N[C@@H](CN)C(=O)N[C@@H](CC(C)C)C(=O)N2C[C@H](O)C[C@H]2C(=O)N[C@@H](Cc2c[nH]c3ccccc23)C(=O)N[C@@H](CCN)C(=O)N[C@@H](Cc2cn(CC(=O)O)c3ccccc23)C(=O)N1C` is reported as 0.0134 µM (CD274 (Homo sapiens, UniProt Q9NZQ7); inhibitor, TR-FRET).
For `COC(=O)C=CCCC(NC(=O)c1ccncc1C(=O)O)C(=O)NC(C(=O)N1CC(=O)CC1C(=O)NC(C(=O)NC(C(N)=O)C1CCCCC1)C1CCCCC1)C(C)(C)C` (stereo not shown), the IC50 was 0.008 ± 0.0001 µM (Coagulation factor XIII A chain (Rat, UniProt O08619); isopeptidase activity, inhibitor; rat enzyme, added: substrate A101).
The IC50 of `CC(Cc1ccccc1Sc1ccccc1)N(C)C` (stereo not shown) is reported as 0.615 µM (SLC6A2 (Homo sapiens, UniProt P23975); transporter uptake, inhibitor, radiometric).
`CSCC[C@H](NC(=O)[C@H](CC(C)C)NC(=O)[C@H](Cc1cnc[nH]1)NC(=O)CNC(=O)[C@@H](NC(=O)[C@H](C)NC(=O)[C@H](Cc1c[nH]c2ccccc12)NC(=O)[C@H](CCC(N)=O)NC(=O)[C@H](N)Cc1ccccc1)C(C)C)C(N)=O` gave an IC50 of 0.00017 µM (GRPR (Homo sapiens, UniProt P30550); ligand displacement in cells, radioligand).
With `Oc1cc(O)c2c(c1)OC(c1ccc(O)c(O)c1)C(OC1(c3ccc(O)c(O)c3)Oc3cc(O)cc(O)c3C(O)C1O)C2` (stereo not shown) the IC50 was 1 ± 0.1 µM (mRNA cap guanine-N(7) methyltransferase, with RAM (RNMT, Homo sapiens, UniProt O43148); N7-methyltransferase activity, inhibitor, Py-FLINT; RNMT-RAM complex, added: SAM 20 µM).
With `C1CCN(c2nnnc3c2sc2nc(N4CCOCC4)c4c(c23)CCCC4)CC1` the IC50 was greater than 100 µM (Beta-glucuronidase (uidA, Escherichia coli, UniProt P05804); enzyme activity, inhibitor, absorbance; pH 7.5).
For `CC(C)=CCC[C@](C)(O[C@@H]1O[C@H](CO[C@@H]2OC[C@@H](O)[C@H](O)[C@H]2O)[C@@H](O)[C@H](O)[C@H]1O)C1CC[C@]2(C)C1[C@H](O)CC1[C@@]3(C)CC[C@H](O[C@@H]4O[C@H](CO)[C@@H](O)[C@H](O)[C@H]4O[C@@H]4O[C@H](CO)[C@@H](O)[C@H](O)[C@H]4O[C@@H]4OC[C@@H](O)[C@H](O)[C@H]4O)C(C)(C)C3CC[C@]12C` (stereo partly shown), the IC50 was greater than 100 µM (PTPN1 (Homo sapiens, UniProt P18031); enzyme activity, inhibitor, absorbance; pH 7.4).

Excerpt of the above:
`O=C(CCl)c1ccc(F)cc1` has an IC50 of greater than 200 µM (Fosb/Jund, ΔFosB isoform (Mus musculus, UniProt P13346+P15066); ΔFOSB/JUND DNA binding, fluorescence polarization; 15 min, added: TMR-cdk5 oligonucleotide).
`CC(C)C[C@H](NC(=O)[C@H](CCC(=O)O)NC(=O)[C@@H](N)CS)C(=O)N[C@@H](CC(N)=O)C(=O)O` gave an IC50 of 233 µM (PPO3 (Agaricus bisporus, UniProt C7FF04); enzyme activity, inhibitor).
